Experimental data gathered from unrelated publications.
A part holds a random share of what one study measured.

Study 1
Target: Fragile X messenger ribonucleoprotein 1, C-terminal low-complexity region (Fmr1, Mus musculus, UniProt P35922)
Method: RNA Bind-n-Seq
Form: RNA
Matrix: in vitro
Tested at: 200 nM
Notes: whole 134-nt RNA, ends assumed
Added: 150 mM LiCl
Reference: input library
Reading: higher = stronger binding
Library: 7-deaza-guanosine replaces G
Shared flanks, not repeated: GGGAGUUCUACAGUCCGACGAUC … UGGAAUUCUCGGGUGUCAAGG
| Sequence | log2 enrichment |
| --- | --- |
| AAGUCCUGUGCUACACAUCGUAUGUACCGAAUCGGGAAAAAGGGAAAGGGUUUGGGAAAGUAUUAUGUUACGCCGUUCGGAUCUGCACUU | -2.47 |
| UCCUGUGCUACACAUCGUAUGUACCGAAUCGGAAAAAAAGGAAAAAAAGGGAAAAAAAGGAAAGUAUUAUGUUACGCCGUUCGGAUCUGC | -0.597 |
| CAAGUCCUGUGCUACACAUCGUAUGUACCGAAUCGGGAAAGGGAAAGGAAAGGGGAAAGUAUUAUGUUACGCCGUUCGGAUCUGCACUUC | -0.433 |
| UCAAGUCCUGUGCUACACAUCGUAUGUACCGAAUCGGUUUUUUUGGAGGAAAGGAAAGUAUUAUGUUACGCCGUUCGGAUCUGCACUUCC | -0.355 |
| CAAGUCCUGUGCUACACAUCGUAUGUACCGAAUCGGGGCCCGGGGCCCGGGCCCGGAAAGUAUUAUGUUACGCCGUUCGGAUCUGCACUU | -1.9 |
| UGGCCCUGGUGGCAUGCGGGGAGGAAGAGGUGGCCUCAUGGAUCGUGGUGGUCCCGGUGGAAUGUUCAGAGGUGGUCGUGGUGGAGACAG | -0.722 |
| GUCCUGUGCUACACAUCGUAUGUACCGAAUCGGGGUUUGGGGAGGGGUUUUUUUGGGGAAAGUAUUAUGUUACGCCGUUCGGAUCUGCAC | 0.0759 |
| GUCCUGUGCUACACAUCGUAUGUACCGAAUCGGGGAAAAAAAGGGGUUUGGGGUGGGGAAAGUAUUAUGUUACGCCGUUCGGAUCUGCAC | -1.01 |
| UCCUGUGCUACACAUCGUAUGUACCGAAUCGGGAAAAAAAGGGUUUGGGAAAAAAAGGGAAAGUAUUAUGUUACGCCGUUCGGAUCUGCA | -1.49 |
| CCUCAAGUCCUGUGCUACACAUCGUAUGUACCGAAUCGGAGGUUUUUGGAGGAAAGUAUUAUGUUACGCCGUUCGGAUCUGCACUUCCAG | -0.542 |
| AAGUCCUGUGCUACACAUCGUAUGUACCGAAUCGGUUUUUGGUUUUUUUGGUUUGGAAAGUAUUAUGUUACGCCGUUCGGAUCUGCACUU | -2.57 |

Study 2
Target: Cyclic AMP-responsive element-binding protein 1 (CREB1, Homo sapiens, UniProt P16220, residues 1-327, full length assumed)
Chain of UniProt P16220 (whole entry, looked up): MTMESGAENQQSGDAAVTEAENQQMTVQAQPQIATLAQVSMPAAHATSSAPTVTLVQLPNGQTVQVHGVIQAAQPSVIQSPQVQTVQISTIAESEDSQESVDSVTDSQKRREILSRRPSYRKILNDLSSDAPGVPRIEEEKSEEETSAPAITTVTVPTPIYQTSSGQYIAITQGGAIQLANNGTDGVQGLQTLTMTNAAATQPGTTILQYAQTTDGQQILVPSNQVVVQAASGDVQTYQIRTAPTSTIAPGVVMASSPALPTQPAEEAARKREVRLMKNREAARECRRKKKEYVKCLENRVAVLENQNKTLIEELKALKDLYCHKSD
Method: protein-binding microarray
Form: double-stranded DNA, one strand shown
Matrix: in vitro
Tested at: not given
Notes: k-mer, scored over probes, only values ≥0.25
Reading: higher = stronger binding
| Sequence | E-score |
| --- | --- |
| TAAGTAA | 0.26 |
| AAATGAC | 0.32 |
| ATATGTG | 0.267 |
| CTGTGAC | 0.306 |
| CATTACG | 0.322 |
| AGATGAC | 0.284 |
| CACGTAA | 0.4 |
| ACGTTAT | 0.386 |
| GACGTCA | 0.491 |
| TAATATA | 0.309 |
| ACTATTA | 0.261 |
| ACGTACG | 0.35 |
| ATGACGG | 0.296 |
| ATTTACG | 0.305 |
| AAGTGAC | 0.257 |
| ACGTAAA | 0.356 |
| CGCGTAA | 0.317 |
| GTACGTA | 0.32 |
| AACACGT | 0.342 |
| ACGTGAT | 0.28 |
| GTATGAC | 0.364 |
| ATTACGA | 0.277 |
| ACGTATG | 0.323 |
| AAATATG | 0.262 |
| ACATATA | 0.259 |

Study 3
Target: Prothrombin, mature alpha-thrombin (F2, Homo sapiens, UniProt P00734)
Method: aptamer microarray, sandwich
Form: DNA with 2'F-ANA
Matrix: in vitro
Tested at: 200 nM
Notes: whole 15-mer aptamer, many near background
Added: Cy3 exosite-II aptamer, 400 nM
Reading: higher = stronger binding
Sequence: GGTTGGTGTGGTTGG
| Modification | mean fluorescence intensity [a.u.] |
| --- | --- |
| 2'F-ANA at 1 3 7 9 11 13 15 | 218 |
| 2'F-ANA at 1 2 4 5 9 | 63.1 |
| 2'F-ANA at 1 2 4 7 8 10 14 15 | 57.6 |
| 2'F-ANA at 1 3 4 8 9 10 14 15 | 49.8 |
| 2'F-ANA at 2 3 5 6 7 11 12 14 | 53.6 |
| 2'F-ANA at 3 6 7 9 13 14 15 | 436 |
| 2'F-ANA at 2 3 4 5 7 10 11 12 | 54 |
| 2'F-ANA at 1 2 4 5 12 13 14 | 48.7 |
| 2'F-ANA at 2 4 5 7 8 10 11 14 15 | 73.7 |
| 2'F-ANA at 1 2 5 6 8 9 11 14 | 51.1 |
| 2'F-ANA at 1 2 3 4 5 6 9 11 12 14 | 76.7 |
| 2'F-ANA at 2 3 4 6 7 10 12 13 | 259 |
| 2'F-ANA at 1 3 4 9 12 15 | 412 |
| 2'F-ANA at 1 8 9 10 11 13 | 54.2 |
| 2'F-ANA at 2 6 8 9 10 11 12 15 | 121 |
| 2'F-ANA at 2 4 5 6 7 8 10 13 14 15 | 53 |
| 2'F-ANA at 2 3 4 7 8 9 12 14 | 347 |
| 2'F-ANA at 1 2 3 4 7 11 15 | 150 |
| 2'F-ANA at 5 8 9 11 14 | 64.4 |
| 2'F-ANA at 3 5 7 9 11 15 | 95 |
| 2'F-ANA at 2 3 9 10 11 13 15 | 318 |
| 2'F-ANA at 1 4 5 6 7 8 9 11 12 14 15 | 52 |
| 2'F-ANA at 2 4 7 8 9 10 12 14 15 | 89.1 |

Study 4
Target: Histone acetyltransferase KAT6A, winged helix 1, GST fusion (KAT6A, Homo sapiens, UniProt Q92794, residues 1-85)
Method: protein binding microarray
Form: double-stranded DNA, one strand shown
Matrix: in vitro
Tested at: not given
Notes: 8-mer, flanks averaged, mean of 2 arrays, mostly near background
Reference: not given
Reading: higher = stronger binding
Construct (chain): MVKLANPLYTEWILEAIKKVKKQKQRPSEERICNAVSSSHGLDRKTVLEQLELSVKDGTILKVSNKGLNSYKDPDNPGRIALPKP
| Sequence | E-score |
| --- | --- |
| CCTTTCAA | -0.179 |
| CAGCAGCG | 0.15 |
| GGTCGAAC | 0.0884 |
| GGGAATAC | 0.063 |
| CTGATTCA | -0.111 |
| TCCGATAA | -0.115 |
| CTACGACC | -0.0592 |
| GCGTAAAA | 0.101 |
| ACACTCAA | -0.15 |
| CTTGATTA | -0.0613 |
| GAACCAGA | -0.192 |
| CCTTGGGA | -0.164 |
| CTCCACAA | -0.219 |
| AACTACAC | -0.115 |
| CACACAGG | -0.232 |
| CAATTCTG | -0.0859 |
| AATAGCTG | -0.126 |
| CACTGTCA | -0.217 |
| CGGCCCCC | 0.212 |
| ACAGGGGT | -0.159 |
| CCCACTCG | -0.0974 |
| GCTATGCC | -0.00693 |
| CCGCGCTA | 0.371 |

For quick reference, copied from above (study 4):
| Sequence | E-score |
| --- | --- |
| CTACGACC | -0.0592 |
| GCGTAAAA | 0.101 |
| ACACTCAA | -0.15 |
| CTTGATTA | -0.0613 |
| GAACCAGA | -0.192 |
| CCTTGGGA | -0.164 |
| CTCCACAA | -0.219 |
